Measurements of several laboratories.
Protocols differ between the studies behind these lines. Several values in a cell are separate wells, animals, samples, runs or records. ± marks the error that the study gave.
U2AF2: U2AF2 148-342 (Homo sapiens, UniProt P26368)
UniProt P26368, sequence (whole entry, looked up): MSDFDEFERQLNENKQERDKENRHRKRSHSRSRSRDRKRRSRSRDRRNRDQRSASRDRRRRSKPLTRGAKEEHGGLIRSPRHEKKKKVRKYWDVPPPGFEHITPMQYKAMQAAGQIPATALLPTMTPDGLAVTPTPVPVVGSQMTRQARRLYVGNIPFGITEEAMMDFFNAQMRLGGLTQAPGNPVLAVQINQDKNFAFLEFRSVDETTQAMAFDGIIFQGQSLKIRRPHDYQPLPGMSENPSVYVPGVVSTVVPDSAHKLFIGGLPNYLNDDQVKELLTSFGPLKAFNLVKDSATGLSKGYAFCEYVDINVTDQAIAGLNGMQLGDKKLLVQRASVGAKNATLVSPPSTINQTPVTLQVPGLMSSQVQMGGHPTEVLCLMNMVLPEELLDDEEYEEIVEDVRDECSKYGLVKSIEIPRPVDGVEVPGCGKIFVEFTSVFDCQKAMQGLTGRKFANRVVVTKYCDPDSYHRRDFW
B1: BAG2; sequence looked up; chain AQAKINAKANEGRFCRSSSMADRSSRLLESLDQLELRVEALREAATAVEQEKEILLEMIHSIQNSQDMRQISDGEREELNLTANRLMGRTLTVEVSVETIRNPQQQESLKHATRIIDEVVNKFLDDLGNAKSHLMSLYSACSSEVPHGPVDQKFQSIVIGCALEDQKKIKRRLETLLRNIENSDKAIKLLEHSKGAGSKTLQQNAESRFN
B2: human hnRNP C; sequence looked up; chain ASNVTNKTDPRSMNSRVFIGNLNTLVVKKSDVEAIFSKYGKIVGCSVHKGFAFVQYVNERNARAAVAGEDGRMIAGQVLDINLAAEPKVNRGKAGVKRSAAEMYGSVTEHPSPSPLLSSSFDLDYDFQRDYYDRMYSYPARVPPPPPIARAVVPSKRQRVSGNTSRRGKSGFNSKSGQRGSSKSGKLKGDDLQAIKKELTQIKQKVDSLLENLEKIEKEQSKQAVEMKNDKSEEEQSSSSVKKDETNVKMESEGGADDSAEEGDLLDDDDNEDRGDDQLELIKDDEKEAEEGEDDRDSANGEDDS
B3: human AIMP1; sequence looked up; chain ANNDAVLKRLEQKGAEADQIIEYLKQQVSLLKEKAILQATLREEKKLRVENAKLKKEIEELKQELIQAEIQNGVKQIPFPSGTPLHANSMVSENVIQSTAVTTVSSGTKEQIKGGTGDEKKAKEKIEKKGEKKEKKQQSIAGSADSKPIDVSRLDLRIGCIITARKHPDADSLYVEEVDVGEIAPRTVVSGLVNHVPLEQMQNRMVILLCNLKPAKMRGVLSQAMVMCASSPEKIEILAPPNGSVPGDRITFDAFPGEPDKELNPKKKIWEQIQPDLHTNDECVATYKGVPFEVKGKGVCRAQTMSNSGIK
B4: STK38 (human); sequence looked up; chain AMTGSTPCSSMSNHTKERVTMTKVTLENFYSNLIAQHEEREMRQKKLEKVMEEEGLKDEEKRLRRSAHARKETEFLRLKRTRLGLEDFESLKVIGRGAFGEVRLVQKKDTGHVYAMKILRKADMLEKEQVGHIRAERDILVEADSLWVVKMFYSFQDKLNLYLIMEFLPGGDMMTLLMKKDTLTEEETQFYIAETVLAIDSIHQLGFIHRDIKPDNLLLDSKGHVKLSDFGLCTGLKKAHRTEFYRNLNHSLPSDFTFQNMNSKRKAETWKRNRRQLAFSTVGTPDYIAPEVFMQTGYNKLCDWWSLGVIMYEMLIGYPPFCSETPQETYKKVMNWKETLTFPPEVPISEKAKDLILRFCCEWEHRIGAPGVEEIKSNSFFEGVDWEHIRERPAAISIEIKSIDDTSNFDEFPESDILKPTVATSNHPETDYKNKDWVFINYTYKRFEGLTARGAIPSYMKAAK
B5: human histidine ammonia-lyase; sequence looked up; chain MPRYTVHVRGEWLAVPCQDAQLTVGWLGREAVRRYIKNKPDNGGFTSVDDAHFLVRRCKGLGLLDNEDRLEVALENNEFVEVVIEGDAMSPDFIPSQPEGVYLYSKYREPEKYIELDGDRLTTEDLVNLGKGRYKIKLTPTAEKRVQKSREVIDSIIKEKTVVYGITTGFGKFARTVIPINKLQELQVNLVRSHSSGVGKPLSPERCRMLLALRINVLAKGYSGISLETLKQVIEMFNASCLPYVPEKGTVGASGDLAPLSHLALGLVGEGKMWSPKSGWADAKYVLEAHGLKPVILKPKEGLALINGTQMITSLGCEAVERASAIARQADIVAALTLEVLKGTTKAFDTDIHALRPHRGQIEVAFRFRSLLDSDHHPSEIAESHRFCDRVQDAYTLRCCPQVHGVVNDTIAFVKNIITTELNSATDNPMVFANRGETVSGGNFHGEYPAKALDYLAIGIHELAAISERRIERLCNPSLSELPAFLVAEGGLNSGFMIAHCTAAALVSENKALCHPSSVDSLSTSAATEDHVSMGGWAARKALRVIEHVEQVLAIELLAACQGIEFLRPLKTTTPLEKVYDLVRSVVRPWIKDRFMAPDIEAAHRLLLEQKVWEVAAPYIEKYRMEHIPESRPLSPTAFSLQFLHKKSTKIPESEDL
UniProt P13393, sequence (whole entry, looked up): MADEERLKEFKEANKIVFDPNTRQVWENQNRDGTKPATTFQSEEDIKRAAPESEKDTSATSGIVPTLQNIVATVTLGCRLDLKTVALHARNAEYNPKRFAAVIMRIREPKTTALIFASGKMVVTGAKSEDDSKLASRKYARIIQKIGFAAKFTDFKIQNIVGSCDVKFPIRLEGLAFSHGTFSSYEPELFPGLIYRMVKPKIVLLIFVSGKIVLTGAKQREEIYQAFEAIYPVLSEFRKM

VVVGAAGVGK — remaining protein (HLA-A*11:01 peptide-β2M single-chain trimer; western blot, measured: pMHC-I; peptide, 293T cells; 60 h, unit not given, with: 100 µg/mL cycloheximide; baseline: time zero): 0.563 and 0.531 and 0.529
GEMVGQARILAQATSDLVNAIKDA — mean rupture force (vinculin head domain Vd1; complex rupture, AFM single-molecule force spectroscopy; peptide; single traces, N-terminal pulling, 800 nm/s): 48.2 pN
VVVGASGVGK — remaining protein (HLA-A*11:01 peptide-β2M single-chain trimer; western blot, measured: pMHC-I; peptide, 293T cells; 24 h, unit not given, with: 100 µg/mL cycloheximide; baseline: time zero): 0.616 and 0.596 and 0.583
VMRLQSETSV — normalised SPR binding response (construct, MBP fusion, human SCRIB, PDZ 3-4; surface plasmon resonance; peptide; concentration not given; higher = stronger binding): 63.7 normalised RU
cytidine monophosphate — log2 fold change (adenosine A2A receptor thermostabilised; equilibrium dialysis LC-MS; 5 µM, normalised z-score; baseline: no protein): 0.106
NRVDSKETEC — normalised SPR binding response (construct, MBP fusion, human SCRIB, PDZ 3-4; surface plasmon resonance; peptide; concentration not given; higher = stronger binding): 22.1 normalised RU
B1 (BAG2) — log2 fold change (PP6C (human); co-immunoprecipitation, IP-MS; CYB5R4 knockout cells; concentration not given; baseline: CYB5R4 knockout over parental): 0.73
KPGKGSETVV — binding intensity (construct, MBP fusion, human SCRIB, PDZ 3-4; automated holdup; peptide, crude extract; concentration not given, uncorrected, unit not given; baseline: biotin control resin, higher = stronger binding): 0.0895
B2 (human hnRNP C) — log2 fold change (PP6C (human); co-immunoprecipitation, IP-MS; CYB5R4 knockout cells; concentration not given; baseline: CYB5R4 knockout over parental): -0.4
human ME2 Q51H — Hill coefficient (enzyme activity, NADH absorbance; with fumarate 3 mM, with: L-malate varied): 1.16 ± 0.09
GSGAGSETKM — normalised SPR binding response (construct, MBP fusion, human SCRIB, PDZ 3-4; surface plasmon resonance; peptide; concentration not given; higher = stronger binding): 12 normalised RU
GTTCCTGAAGGGGGGGCGGGGTGGGTATAAAAGGGTCAAGTCAATCGGTCC (dsDNA; blunt; 5'-amino-C6 primer) — Kd (SPT15 full length assumed (Saccharomyces cerevisiae, UniProt P13393); EMSA; double-stranded DNA, one strand shown): 170 ± 90 nM
GCUUUGGCC (ssRNA) — Kd (U2AF2; sequencing of bound RNA; RNA; motif only): 1170 nM
B3 (human AIMP1) — log2 fold change (PP6C (human); co-immunoprecipitation, IP-MS; CYB5R4 knockout cells; concentration not given; baseline: CYB5R4 knockout over parental): 0.96
I-BET151 — photocrosslinking (BRD4 bromodomains BRD4 D1 and D2; SDS-PAGE): no effect
human HuR — log2 fold change (PP6C (human); co-immunoprecipitation, IP-MS; CYB5R4 knockout cells; concentration not given; baseline: CYB5R4 knockout over parental): -1.81
SEKHFRETEV — normalised SPR binding response (construct, MBP fusion, human SCRIB, PDZ 3-4; surface plasmon resonance; peptide; concentration not given; higher = stronger binding): 102 normalised RU
B4 (STK38) — log2 fold change (PP6C (human); co-immunoprecipitation, IP-MS; CYB5R4 knockout cells; concentration not given; baseline: CYB5R4 knockout over parental): -0.17
SVWLRKETRV — binding intensity (construct, MBP fusion, human SCRIB, PDZ 3-4; automated holdup; peptide, crude extract; concentration not given, uncorrected, unit not given; baseline: biotin control resin, higher = stronger binding): 0.487
Relaxin — decrease in association (RXFP1 signalosome; co-immunoprecipitation, measured: AC2, AKAP79; HEK293 expressing FLAG-RXFP1, AC2-HA; 10 nM, 5 min): 60%
human ME2 L79F — Hill coefficient (enzyme activity, NADH absorbance; with fumarate 3 mM, with: L-malate varied): 1.2 ± 0.04
B5 (human histidine ammonia-lyase) — log2 fold change (PP6C (human); co-immunoprecipitation, IP-MS; CYB5R4 knockout cells; concentration not given; baseline: CYB5R4 knockout over parental): 1.23
CACUUUUCU (ssRNA) — Kd (U2AF2; sequencing of bound RNA; RNA; motif only): 610 nM

Some of these lines once more:
VVVGAAGVGK — remaining protein (HLA-A*11:01 peptide-β2M single-chain trimer; western blot, measured: pMHC-I; peptide, 293T cells; 60 h, unit not given, with: 100 µg/mL cycloheximide; baseline: time zero): 0.563 and 0.531 and 0.529
SVWLRKETRV — binding intensity (construct, MBP fusion, human SCRIB, PDZ 3-4; automated holdup; peptide, crude extract; concentration not given, uncorrected, unit not given; baseline: biotin control resin, higher = stronger binding): 0.487
human HuR — log2 fold change (PP6C (human); co-immunoprecipitation, IP-MS; CYB5R4 knockout cells; concentration not given; baseline: CYB5R4 knockout over parental): -1.81
VVVGASGVGK — remaining protein (HLA-A*11:01 peptide-β2M single-chain trimer; western blot, measured: pMHC-I; peptide, 293T cells; 24 h, unit not given, with: 100 µg/mL cycloheximide; baseline: time zero): 0.616 and 0.596 and 0.583
